Published values collected from several papers.
Lines come from different studies, so protocols differ. ± marks the error that the study gave.
Kir3.1/Kir3.4: Kir3.1/Kir3.4 (Homo sapiens, UniProt P48544+P48549)
UniProt P48544, sequence (whole entry, looked up): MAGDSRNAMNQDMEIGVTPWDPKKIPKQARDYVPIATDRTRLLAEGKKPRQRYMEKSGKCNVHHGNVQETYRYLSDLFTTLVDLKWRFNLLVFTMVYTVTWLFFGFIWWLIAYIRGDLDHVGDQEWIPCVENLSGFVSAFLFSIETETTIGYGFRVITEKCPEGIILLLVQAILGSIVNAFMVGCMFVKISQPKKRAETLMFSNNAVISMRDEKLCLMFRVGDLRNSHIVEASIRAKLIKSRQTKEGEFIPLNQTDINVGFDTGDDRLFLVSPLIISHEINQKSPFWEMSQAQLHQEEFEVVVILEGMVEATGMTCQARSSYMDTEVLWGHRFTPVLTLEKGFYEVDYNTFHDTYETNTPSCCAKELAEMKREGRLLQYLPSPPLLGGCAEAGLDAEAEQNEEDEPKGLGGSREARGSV
UniProt P48549, sequence (whole entry, looked up): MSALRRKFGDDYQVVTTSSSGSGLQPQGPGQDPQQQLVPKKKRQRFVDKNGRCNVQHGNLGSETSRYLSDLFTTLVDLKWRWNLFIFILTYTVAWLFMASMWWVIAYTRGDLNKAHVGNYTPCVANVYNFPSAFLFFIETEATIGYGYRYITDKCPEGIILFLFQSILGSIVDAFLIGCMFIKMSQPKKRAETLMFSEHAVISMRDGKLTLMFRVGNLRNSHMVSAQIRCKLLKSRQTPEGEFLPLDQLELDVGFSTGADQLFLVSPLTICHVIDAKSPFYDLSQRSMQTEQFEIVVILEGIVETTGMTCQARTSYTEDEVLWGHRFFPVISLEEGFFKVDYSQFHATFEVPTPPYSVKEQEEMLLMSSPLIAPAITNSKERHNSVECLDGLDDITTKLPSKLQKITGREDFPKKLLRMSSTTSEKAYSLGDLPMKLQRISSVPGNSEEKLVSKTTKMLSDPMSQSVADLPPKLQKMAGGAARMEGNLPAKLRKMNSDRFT
uncharacterized protein: uncharacterized protein (Puma concolor, UniProt A0A6P6H1F7)
UniProt P35372, sequence (whole entry, looked up): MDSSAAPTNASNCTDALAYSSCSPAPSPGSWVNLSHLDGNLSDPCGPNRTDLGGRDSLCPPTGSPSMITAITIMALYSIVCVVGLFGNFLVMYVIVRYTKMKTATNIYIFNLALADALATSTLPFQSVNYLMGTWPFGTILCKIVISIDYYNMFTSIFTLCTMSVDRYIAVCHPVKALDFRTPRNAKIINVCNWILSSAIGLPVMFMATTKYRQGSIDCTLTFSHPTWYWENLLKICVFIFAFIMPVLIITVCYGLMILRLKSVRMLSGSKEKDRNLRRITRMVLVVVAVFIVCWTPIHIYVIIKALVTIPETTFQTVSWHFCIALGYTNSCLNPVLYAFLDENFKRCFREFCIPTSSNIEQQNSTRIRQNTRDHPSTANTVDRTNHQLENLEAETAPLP
UniProt P43119, sequence (whole entry, looked up): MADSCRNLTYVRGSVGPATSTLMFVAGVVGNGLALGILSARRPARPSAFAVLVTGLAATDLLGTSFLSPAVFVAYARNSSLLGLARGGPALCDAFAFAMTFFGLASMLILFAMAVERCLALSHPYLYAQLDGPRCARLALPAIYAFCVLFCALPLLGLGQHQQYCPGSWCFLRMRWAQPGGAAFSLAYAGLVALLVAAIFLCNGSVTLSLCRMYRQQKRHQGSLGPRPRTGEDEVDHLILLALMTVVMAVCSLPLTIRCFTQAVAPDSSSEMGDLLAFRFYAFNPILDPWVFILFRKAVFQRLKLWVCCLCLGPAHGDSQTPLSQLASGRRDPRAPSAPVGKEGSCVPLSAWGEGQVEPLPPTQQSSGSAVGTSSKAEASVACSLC
UniProt Q3KNA1, sequence (whole entry, looked up): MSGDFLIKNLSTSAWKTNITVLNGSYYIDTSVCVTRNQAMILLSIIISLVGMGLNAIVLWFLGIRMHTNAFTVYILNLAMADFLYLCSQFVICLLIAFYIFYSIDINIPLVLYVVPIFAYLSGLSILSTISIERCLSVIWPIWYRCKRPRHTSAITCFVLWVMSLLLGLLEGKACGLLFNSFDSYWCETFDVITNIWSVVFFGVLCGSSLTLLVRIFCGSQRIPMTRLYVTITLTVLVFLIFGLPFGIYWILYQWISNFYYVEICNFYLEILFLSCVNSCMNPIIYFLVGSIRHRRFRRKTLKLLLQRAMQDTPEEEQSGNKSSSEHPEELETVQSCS
UniProt P34995, sequence (whole entry, unmodified, looked up): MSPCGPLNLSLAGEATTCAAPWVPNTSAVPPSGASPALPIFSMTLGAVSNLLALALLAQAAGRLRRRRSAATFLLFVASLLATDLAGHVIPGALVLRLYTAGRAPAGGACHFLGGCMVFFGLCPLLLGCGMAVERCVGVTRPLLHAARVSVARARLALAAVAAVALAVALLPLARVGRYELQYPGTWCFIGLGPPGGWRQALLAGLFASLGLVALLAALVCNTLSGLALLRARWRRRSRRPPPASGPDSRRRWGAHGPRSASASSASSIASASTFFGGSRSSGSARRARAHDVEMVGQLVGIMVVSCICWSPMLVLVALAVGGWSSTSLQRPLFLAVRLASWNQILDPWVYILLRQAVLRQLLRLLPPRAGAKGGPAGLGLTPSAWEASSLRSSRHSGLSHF
UniProt Q16740, sequence (whole entry, looked up): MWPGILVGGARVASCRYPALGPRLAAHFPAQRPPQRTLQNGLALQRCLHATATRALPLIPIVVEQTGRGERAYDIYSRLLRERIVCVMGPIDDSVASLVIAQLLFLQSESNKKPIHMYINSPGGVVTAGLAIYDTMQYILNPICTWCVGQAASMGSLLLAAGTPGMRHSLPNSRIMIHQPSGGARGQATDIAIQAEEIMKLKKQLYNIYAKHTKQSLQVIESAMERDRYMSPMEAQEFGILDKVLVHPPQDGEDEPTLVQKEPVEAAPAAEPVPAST
UniProt Q99571, sequence (whole entry, looked up): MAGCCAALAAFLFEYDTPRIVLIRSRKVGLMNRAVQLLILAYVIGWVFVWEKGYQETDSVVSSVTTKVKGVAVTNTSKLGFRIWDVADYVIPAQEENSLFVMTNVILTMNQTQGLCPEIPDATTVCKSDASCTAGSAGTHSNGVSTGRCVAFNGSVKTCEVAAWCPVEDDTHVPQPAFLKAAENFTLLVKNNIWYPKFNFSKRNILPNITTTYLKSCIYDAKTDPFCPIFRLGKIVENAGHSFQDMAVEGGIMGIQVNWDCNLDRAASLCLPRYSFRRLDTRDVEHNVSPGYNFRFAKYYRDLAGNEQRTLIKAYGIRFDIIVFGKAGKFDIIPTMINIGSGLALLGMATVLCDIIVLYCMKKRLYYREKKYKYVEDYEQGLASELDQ
UniProt O75469, sequence (whole entry, looked up): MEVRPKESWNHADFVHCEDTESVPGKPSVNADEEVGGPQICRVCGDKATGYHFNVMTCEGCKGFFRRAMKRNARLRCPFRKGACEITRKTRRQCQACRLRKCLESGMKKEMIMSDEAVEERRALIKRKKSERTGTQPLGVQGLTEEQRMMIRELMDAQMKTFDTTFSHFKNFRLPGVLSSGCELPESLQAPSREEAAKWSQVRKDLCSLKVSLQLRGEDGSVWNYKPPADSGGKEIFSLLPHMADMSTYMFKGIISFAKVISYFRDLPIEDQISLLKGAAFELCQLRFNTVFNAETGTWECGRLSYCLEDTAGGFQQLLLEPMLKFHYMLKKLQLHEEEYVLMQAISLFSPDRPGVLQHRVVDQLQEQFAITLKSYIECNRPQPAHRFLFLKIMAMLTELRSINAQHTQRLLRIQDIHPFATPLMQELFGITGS
UniProt P54760, sequence (whole entry, looked up): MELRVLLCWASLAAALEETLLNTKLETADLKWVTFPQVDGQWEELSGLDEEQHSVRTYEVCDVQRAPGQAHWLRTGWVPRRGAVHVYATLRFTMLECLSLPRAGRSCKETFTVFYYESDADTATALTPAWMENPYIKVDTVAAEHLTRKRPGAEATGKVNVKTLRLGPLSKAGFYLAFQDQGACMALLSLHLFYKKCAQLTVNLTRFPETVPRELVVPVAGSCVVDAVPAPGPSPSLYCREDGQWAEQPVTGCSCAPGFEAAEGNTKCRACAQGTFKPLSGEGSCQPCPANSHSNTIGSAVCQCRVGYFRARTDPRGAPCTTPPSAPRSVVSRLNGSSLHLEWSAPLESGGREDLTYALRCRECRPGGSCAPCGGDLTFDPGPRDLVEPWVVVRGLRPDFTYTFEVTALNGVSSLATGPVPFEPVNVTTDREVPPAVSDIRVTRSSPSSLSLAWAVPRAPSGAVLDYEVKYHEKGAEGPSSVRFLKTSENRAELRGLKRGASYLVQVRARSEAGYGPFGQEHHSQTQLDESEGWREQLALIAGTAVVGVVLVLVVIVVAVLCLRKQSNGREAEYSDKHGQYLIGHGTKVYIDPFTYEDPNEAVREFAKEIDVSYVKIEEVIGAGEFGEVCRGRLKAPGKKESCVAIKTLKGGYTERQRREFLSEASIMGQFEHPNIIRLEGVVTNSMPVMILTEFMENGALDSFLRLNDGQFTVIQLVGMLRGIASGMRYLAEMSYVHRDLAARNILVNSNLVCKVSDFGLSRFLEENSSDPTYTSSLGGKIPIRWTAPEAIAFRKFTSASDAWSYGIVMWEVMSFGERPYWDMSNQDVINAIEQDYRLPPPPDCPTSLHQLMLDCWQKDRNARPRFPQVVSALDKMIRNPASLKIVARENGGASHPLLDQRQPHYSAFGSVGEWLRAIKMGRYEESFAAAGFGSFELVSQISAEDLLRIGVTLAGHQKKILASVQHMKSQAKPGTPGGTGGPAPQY

O=C(COc1cc(Cl)ccc1Cl)Nc1cc(C2CC2)nn1CC(F)(F)F
EC50 (Kir3.1/Kir3.4; activator, thallium flux; HEK293): 1750 nM

Nc1ncnc2c1ncn2[C@@H]1O[C@H](COP(=O)(O)OP(=O)(O)OP(=O)(O)O)[C@@H](O)[C@H]1O
EC50 (P2X purinoceptor 4 (P2RX4, Homo sapiens, UniProt Q99571); agonist): 20000 ± 2000 nM

COc1cc(Nc2ncc3c(n2)-c2ccc(Cl)cc2C(c2c(F)cccc2OC)=NC3)ccc1C(=O)NCCOCCOCCNC(=O)COc1cccc2c1C(=O)N(C1CCC(=O)NC1=O)C2=O (stereo not drawn)
EC50 (Ephrin type-B receptor 4 (EPHB4, Homo sapiens, UniProt P54760); binding, kinobead competition; MV4-11 cell lysate): > 30000 nM

Cn1cc2c(C(=O)O)ccc(NS(=O)(=O)c3ccc(OCC4CCC4)c(Cl)c3)c2n1
EC50 (Mu-type opioid receptor (OPRM1, Homo sapiens, UniProt P35372); agonist): > 10000 nM

CCc1cc(NC(=O)COc2ccc(Cl)cc2Cl)n(C2CCC(F)(F)CC2)n1
EC50 (Kir3.1/Kir3.4; activator, thallium flux; HEK293): 306 nM

CCc1nccnc1OC
EC50 (uncharacterized protein; cAMP, agonist; HEK293 transfected with uncharacterized protein): 318000 ± 35100 nM

C[C@@H]1CC2=C(CN1Cc1cccc(C#N)c1)C(=O)N(Cc1cccc(Br)c1)C1=NCCN12
EC50 (ATP-dependent Clp protease proteolytic subunit, mitochondrial (CLPP, Homo sapiens, UniProt Q16740); peptidase activity, activator; together with: Ac-WLA-AMC): 48.1 ± 1.6 nM

O=C(COc1ccc(Cl)cc1Cl)Nc1cc(C2CC2)nn1C1CCC(F)(F)CC1
EC50 (Kir3.1/Kir3.4; activator, thallium flux; HEK293): 804 nM

Clc1ccccc1C(c1ccccc1)(c1ccccc1)n1ccnc1
EC50 (Nuclear receptor subfamily 1 group I member 2 (NR1I2, Homo sapiens, UniProt O75469); agonist; 120 min, pH 7.5): 1850 nM

Cc1cc(NC(=O)C2CCc3ccccc3O2)n(C2CCS(=O)(=O)C2)n1 (stereo not drawn)
EC50 (Kir3.1/Kir3.4; activator, thallium flux; HEK293): > 10000 nM

CC[C@H](C)[C@H](NC(=O)[C@H](CCC(N)=O)NC(=O)[C@H](C)NC(=O)[C@H](Cc1c[nH]c2ccccc12)NC(=O)[C@H](CCC(=O)O)NC(=O)[C@H](CCC(=O)O)NC(=O)[C@H](CCC(=O)O)NC(=O)[C@H](CC(C)C)NC(=O)[C@H](CO)NC(C)=O)C(=O)N[C@@H](CCC(=O)O)C(=O)N[C@H]1CSSC[C@@H](C(=O)N2CCC[C@H]2C(=O)N[C@@H](CO)C(=O)N[C@@H](CCC(=O)O)C(=O)N[C@@H](CO)C(=O)N[C@@H](Cc2ccccc2)C(=O)N[C@@H](Cc2ccc(O)cc2)C(=O)N[C@@H](CC(=O)O)C(=O)N[C@@H](Cc2c[nH]c3ccccc23)C(=O)N[C@@H](Cc2ccccc2)C(=O)N[C@@H](CCC(=O)O)C(=O)N[C@@H](CCCNC(=N)N)C(=O)N[C@@H](CCC(N)=O)C(=O)N[C@@H](CC(C)C)C(N)=O)NC(=O)CNC(=O)[C@H](CCCNC(=N)N)NC(=O)CNC(=O)[C@H](Cc2ccc(O)cc2)NC(=O)[C@H](C(C)C)NC(=O)[C@H](CCC(=O)O)NC1=O
EC50 (Insulin receptor, isoform B (INSR, Homo sapiens, UniProt P06213); AKT phosphorylation, agonist; NIH 3T3 (IR-B)): 10.2 nM

CCCCC[C@H](O)/C=C/[C@H]1[C@H](O)CC(=O)[C@@H]1C/C=C\CCCC(=O)O
EC50 (Prostaglandin E2 receptor EP1 subtype (PTGER1, Homo sapiens, UniProt P34995, S69A); IP1 accumulation, agonist; AD293; EP1 S69A mutant): 2.03 nM

C=CCc1ccc(OC)c(OC)c1
EC50 (uncharacterized protein; cAMP, agonist; HEK293 transfected with uncharacterized protein): 129000 ± 47000 nM

CC[C@@H](C)[C@@H](NC(=O)[C@H](NC(=O)[C@@H](CCCNC(=N)N)NC(=O)[C@H](NC(=O)[C@H]1CCCN1C(=O)[C@H](NC(=O)[C@@H](C)NC(=O)[C@@H](CCCNC(=N)N)NC(=O)[C@@H](Cc1c[nH]c2ccccc12)NC(=O)[C@@H](CCC(N)=O)NC(=O)[C@H](N)C(C)C)[C@H](C)CC)C(C)C)C(C)C)C(=O)N[C@H](CCCNC(=N)N)C(N)=O
EC50 (Mrgprb2 (Mus musculus, UniProt Q3KNA1); mast cell degranulation, agonist, measured: β-hexosaminidase release; peritoneal mast cells, wild-type mice): 3330 nM

CC#CCC(C)[C@H](O)/C=C/[C@@H]1[C@H]2c3cccc(CCCC(=O)O)c3O[C@H]2C[C@H]1O (mixture of isomers)
EC50 (Prostacyclin receptor (PTGIR, Homo sapiens, UniProt P43119); agonist, cell-based): 771 nM
